# Assay results pooled from the literature.
# ± gives the spread as reported.
# Cell line: A549
SMILES,observed,method,time,notes,together with,IC50 [µM]
C=CCc1ccc(O)c(-c2ccc(O)c(CC=C)c2)c1,cell proliferation,MTS,24 h,,temozolomide 250 µM,12.6
O=[N+]([O-])c1ccc2nc(/C=C/c3ccc(F)cc3)c(/C=C/c3ccc(F)cc3)nc2c1,cell growth or viability,MTT,72 h,,,> 100
O=[N+]([O-])c1ccc(-n2nc(-c3cccs3)sc2=NN=C2CCCC2)cc1,cell growth or viability,,,,,68.5
N.N.O=C([O-])C1(C(=O)[O-])CCC1.[Pt+2],cell viability,MTT,4 h,,,190 ± 18.6
Cc1cccc(C(=O)C2C(c3c(C)cc(C)cc3C)C3CCCN3C23C(=O)Nc2ccccc23)c1 (centres unmarked),cell growth or viability,MTT,24 h,,,11.1
CC(=O)OC[C@H]1O[C@@H]([S-])[C@H](OC(C)=O)[C@@H](OC(C)=O)[C@@H]1OC(C)=O.CCP(CC)CC.[Au+],cell growth or viability,crystal violet,72 h,,,4.2
CC(C=NNC(N)=S)=NNC(N)=S,cell viability,MTT,"24 h hypoxic, 48 h normoxic",hypoxic treatment,,0.09 ± 0.03
CCn1c[n+](CC)c2ccc(C(=O)OC)cc21,cell growth or viability,crystal violet,72 h,,,51.4
CC(=O)Nc1ccc(/C=C/c2nc3ccc([N+](=O)[O-])cc3nc2/C=C/c2ccc(NC(C)=O)cc2)cc1,cell growth or viability,MTT,72 h,,,> 100
Cc1cc(C)c(C2CN(C)C3(C(=O)Nc4ccccc43)C2C(=O)c2ccccc2)c(C)c1 (centres unmarked),cell growth or viability,MTT,24 h,,,6.6
O=c1c(O)c(-c2ccccc2)oc2cc3ccccc3cc12,cell viability,MTT,,"visible light, BSA 0.6 mM",,95.4 ± 3.91
Nc1nc(-c2cccc(NC(=O)c3cc4cc(Cl)ccc4[nH]3)c2)c(C(=O)c2ccccc2)[nH]1,cell viability,resazurin,72 h,,,15.1
Cc1ccc(C(=O)C2C(c3c(C)cc(C)cc3C)CN(C)C23C(=O)Nc2ccccc23)cc1 (centres unmarked),cell growth or viability,MTT,24 h,,,6.93
C/C(=N/NC(=O)c1cn(-c2ccccc2)nc1-c1ccc(F)cc1)c1c(O)cc(C)oc1=O,cell growth or viability,MTT,48 h,,,68.5
Cc1ccc(C(=O)C2C(c3c(C)cc(C)cc3C)C3CCCN3C23C(=O)Nc2ccccc23)cc1 (centres unmarked),cell growth or viability,MTT,,,,< 10
CCN1CCC2(CC1)C/C(=N\N=C\c1ccc(N(C)C)cc1)c1ccccc1O2,cell growth or viability,MTT,48 h,,,48.5
C=CC1=C(C)c2cc3[nH]c(cc4nc(cc5[nH]c(cc1n2)c(C)c5CCC(=O)O)C(CCC(=O)O)=C4C)c(C)c3C=C,cell viability,resazurin,48 h,,510 nm light 2.44 J/cm2 for 10 min,0.45 ± 0.06
Cc1cccc(C(=O)C2C(c3c(C)cc(C)cc3C)CN(C)C23C(=O)Nc2ccccc23)c1 (centres unmarked),cell growth or viability,MTT,48 h,,,3.5
CC(=NN=c1sc(-c2cccs2)nn1-c1ccc([N+](=O)[O-])cc1)c1ccccc1,cell growth or viability,,,,,32.1
Clc1ccc(/C=C/c2nc3ccc(Br)cc3nc2/C=C/c2ccc(Cl)cc2)cc1,cell growth or viability,MTT,72 h,,,> 100
Nc1nc(-c2cccc(NC(=O)c3cc4cc(F)ccc4[nH]3)c2)c(C(=O)c2ccccc2)[nH]1,cell growth or viability,resazurin,72 h,,,29.1
O=C(Cn1cc(COc2ncnc3[nH]cnc23)nn1)Nc1ccc(F)c(Cl)c1,cell growth or viability,MTT,,,,4.02
CN(C)C/C=C/C(=O)Nc1cc2c(Nc3ccc(F)c(Cl)c3)ncnc2cc1O[C@H]1CCOC1,cell growth or viability,MTT,48 h,,,8.09
COc1cccc2c1C(=O)c1c(O)c3c(c(O)c1C2=O)C[C@@](O)(C(=O)CO)C[C@@H]3O[C@H]1C[C@H](N)[C@H](O)[C@H](C)O1,cell growth or viability,MTT,72 h,,,3
Cc1ccc(NC(=O)Cn2cc(COc3ncnc4[nH]cnc34)nn2)c(C)c1,cell growth or viability,MTT,,,,12.3
CC(C=NN=C(N)[S-])=NN=C(N)[S-].O=[N+]([O-])[O-].[Co+3].c1c[nH]cn1.c1c[nH]cn1,cell viability,MTT,24 h then 48 h recovery,normoxia,,~4.2
Cc1cc(C)c(C2C3CCCN3C3(C(=O)Nc4ccccc43)C2C(=O)c2ccc(Br)cc2)c(C)c1 (centres unmarked),cell growth or viability,MTT,48 h,,,13.5
O=[N+]([O-])c1ccc2nc(/C=C/c3ccco3)c(/C=C/c3ccco3)nc2c1,cell growth or viability,MTT,72 h,,,> 100
NCCN.O=C1[O][Pt]2([O]C(=O)C13CCC3)[O]C(=O)C1(CCC1)C(=O)[O]2,cell viability,MTT,96 h,,,> 640
O=[N+]([O-])c1ccc2nc(/C=C/c3ccccc3)c(/C=C/c3ccccc3)nc2c1,cell growth or viability,MTT,72 h,,,> 100
Cc1cc(C)c(C2C3CCCN3C3(C(=O)Nc4ccccc43)C2C(=O)c2ccc(Cl)cc2)c(C)c1 (centres unmarked),cell growth or viability,MTT,24 h,,,12.9
CCCCCCOC(C)c1c(C)c2cc3nc(c4c5[nH]c(cc6nc(cc1[nH]2)C(C)=C6CC)c(C)c5C(=O)C4)[C@@H](CCC(=O)O)[C@@H]3C (some centres unmarked),cell growth or viability,,72 h,dark,,> 90
O=[N+]([O-])c1ccc2nc(/C=C/c3cccc(Cl)c3)c(/C=C/c3cccc(Cl)c3)nc2c1,cell growth or viability,MTT,72 h,,,75
CCOC(=O)c1[nH]c(N)nc1-c1cccc(NC(=O)c2cc3cc(F)ccc3[nH]2)c1,cell growth or viability,resazurin,72 h,,,18.6
Cc1cc(C)c(C2C3CCCN3C3(C(=O)Nc4ccccc43)C2C(=O)c2cccc(Cl)c2)c(C)c1 (centres unmarked),cell growth or viability,MTT,48 h,,,1.2
Brc1ccc2nc(/C=C/c3ccc4ccccc4c3)c(/C=C/c3ccc4ccccc4c3)nc2c1,cell growth or viability,MTT,72 h,,,> 100
CC(=NN=C(N)[S-])C(C)=NN=C(N)[S-].NCc1ccccc1.NCc1ccccc1.O=[N+]([O-])[O-].[Co+3],cell viability,MTT,"24 h hypoxic, 48 h normoxic",hypoxic treatment,,> 500
O=C(Cn1cc(COc2ncnc3[nH]cnc23)nn1)NCc1ccc(O)cc1,cell growth or viability,MTT,,,,> 100
COc1ccc2[nH]c(C(=O)Nc3cccc(-c4nc(N)[nH]c4C(=O)c4ccccc4)c3)cc2c1,cell growth or viability,resazurin,72 h,,,21.1
Brc1ccc2nc(/C=C/c3ccco3)c(/C=C/c3ccco3)nc2c1,cell growth or viability,MTT,72 h,,,54.9
C/C(=N/NC(=O)c1cn(-c2ccccc2)nc1-c1ccc(Cl)cc1)c1c(O)cc(C)oc1=O,cell growth or viability,MTT,48 h,,,31.2

# Repeated from above:
SMILES,observed,method,time,notes,together with,IC50 [µM]
C/C(=N/NC(=O)c1cn(-c2ccccc2)nc1-c1ccc(Cl)cc1)c1c(O)cc(C)oc1=O,cell growth or viability,MTT,48 h,,,31.2
COc1ccc2[nH]c(C(=O)Nc3cccc(-c4nc(N)[nH]c4C(=O)c4ccccc4)c3)cc2c1,cell growth or viability,resazurin,72 h,,,21.1
CC(=O)Nc1ccc(/C=C/c2nc3ccc([N+](=O)[O-])cc3nc2/C=C/c2ccc(NC(C)=O)cc2)cc1,cell growth or viability,MTT,72 h,,,> 100
CC(=O)OC[C@H]1O[C@@H]([S-])[C@H](OC(C)=O)[C@@H](OC(C)=O)[C@@H]1OC(C)=O.CCP(CC)CC.[Au+],cell growth or viability,crystal violet,72 h,,,4.2
C/C(=N/NC(=O)c1cn(-c2ccccc2)nc1-c1ccc(F)cc1)c1c(O)cc(C)oc1=O,cell growth or viability,MTT,48 h,,,68.5
O=c1c(O)c(-c2ccccc2)oc2cc3ccccc3cc12,cell viability,MTT,,"visible light, BSA 0.6 mM",,95.4 ± 3.91
